Results pooled from the literature.
Compare with care: the assays were run in different laboratories. Several values in a cell are separate wells, animals, samples, runs or records. ± marks the error that the study gave.
Ugcg: Ceramide glucosyltransferase (Ugcg, Mus musculus, UniProt O88693)
Sequence of UniProt O88693 (whole entry, looked up): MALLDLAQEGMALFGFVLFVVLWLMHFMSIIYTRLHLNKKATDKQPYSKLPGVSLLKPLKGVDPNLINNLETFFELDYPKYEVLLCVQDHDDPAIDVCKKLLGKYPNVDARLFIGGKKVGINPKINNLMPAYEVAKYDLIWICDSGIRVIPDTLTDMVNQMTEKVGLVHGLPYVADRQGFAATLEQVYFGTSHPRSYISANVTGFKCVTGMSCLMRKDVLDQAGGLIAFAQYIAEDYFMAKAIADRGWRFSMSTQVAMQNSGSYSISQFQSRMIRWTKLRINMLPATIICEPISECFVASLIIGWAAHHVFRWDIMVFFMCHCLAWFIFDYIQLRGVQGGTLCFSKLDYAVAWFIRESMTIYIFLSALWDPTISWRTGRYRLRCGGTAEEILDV
Sequence of UniProt P10632 (whole entry, looked up): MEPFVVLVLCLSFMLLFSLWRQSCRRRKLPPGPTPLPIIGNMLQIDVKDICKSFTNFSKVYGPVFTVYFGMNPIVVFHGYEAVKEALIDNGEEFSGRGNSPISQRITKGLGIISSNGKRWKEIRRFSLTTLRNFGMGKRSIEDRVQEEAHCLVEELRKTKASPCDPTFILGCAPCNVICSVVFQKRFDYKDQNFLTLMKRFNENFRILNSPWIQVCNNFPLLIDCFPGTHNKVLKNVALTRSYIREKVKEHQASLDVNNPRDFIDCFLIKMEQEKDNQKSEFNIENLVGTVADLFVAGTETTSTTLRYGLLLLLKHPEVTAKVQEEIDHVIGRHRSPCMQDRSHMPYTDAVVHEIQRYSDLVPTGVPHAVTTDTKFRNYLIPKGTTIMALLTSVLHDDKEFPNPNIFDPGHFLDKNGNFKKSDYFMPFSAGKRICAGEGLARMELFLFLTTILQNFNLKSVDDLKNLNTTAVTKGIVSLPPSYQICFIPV
Sequence of UniProt Q92887 (whole entry, looked up): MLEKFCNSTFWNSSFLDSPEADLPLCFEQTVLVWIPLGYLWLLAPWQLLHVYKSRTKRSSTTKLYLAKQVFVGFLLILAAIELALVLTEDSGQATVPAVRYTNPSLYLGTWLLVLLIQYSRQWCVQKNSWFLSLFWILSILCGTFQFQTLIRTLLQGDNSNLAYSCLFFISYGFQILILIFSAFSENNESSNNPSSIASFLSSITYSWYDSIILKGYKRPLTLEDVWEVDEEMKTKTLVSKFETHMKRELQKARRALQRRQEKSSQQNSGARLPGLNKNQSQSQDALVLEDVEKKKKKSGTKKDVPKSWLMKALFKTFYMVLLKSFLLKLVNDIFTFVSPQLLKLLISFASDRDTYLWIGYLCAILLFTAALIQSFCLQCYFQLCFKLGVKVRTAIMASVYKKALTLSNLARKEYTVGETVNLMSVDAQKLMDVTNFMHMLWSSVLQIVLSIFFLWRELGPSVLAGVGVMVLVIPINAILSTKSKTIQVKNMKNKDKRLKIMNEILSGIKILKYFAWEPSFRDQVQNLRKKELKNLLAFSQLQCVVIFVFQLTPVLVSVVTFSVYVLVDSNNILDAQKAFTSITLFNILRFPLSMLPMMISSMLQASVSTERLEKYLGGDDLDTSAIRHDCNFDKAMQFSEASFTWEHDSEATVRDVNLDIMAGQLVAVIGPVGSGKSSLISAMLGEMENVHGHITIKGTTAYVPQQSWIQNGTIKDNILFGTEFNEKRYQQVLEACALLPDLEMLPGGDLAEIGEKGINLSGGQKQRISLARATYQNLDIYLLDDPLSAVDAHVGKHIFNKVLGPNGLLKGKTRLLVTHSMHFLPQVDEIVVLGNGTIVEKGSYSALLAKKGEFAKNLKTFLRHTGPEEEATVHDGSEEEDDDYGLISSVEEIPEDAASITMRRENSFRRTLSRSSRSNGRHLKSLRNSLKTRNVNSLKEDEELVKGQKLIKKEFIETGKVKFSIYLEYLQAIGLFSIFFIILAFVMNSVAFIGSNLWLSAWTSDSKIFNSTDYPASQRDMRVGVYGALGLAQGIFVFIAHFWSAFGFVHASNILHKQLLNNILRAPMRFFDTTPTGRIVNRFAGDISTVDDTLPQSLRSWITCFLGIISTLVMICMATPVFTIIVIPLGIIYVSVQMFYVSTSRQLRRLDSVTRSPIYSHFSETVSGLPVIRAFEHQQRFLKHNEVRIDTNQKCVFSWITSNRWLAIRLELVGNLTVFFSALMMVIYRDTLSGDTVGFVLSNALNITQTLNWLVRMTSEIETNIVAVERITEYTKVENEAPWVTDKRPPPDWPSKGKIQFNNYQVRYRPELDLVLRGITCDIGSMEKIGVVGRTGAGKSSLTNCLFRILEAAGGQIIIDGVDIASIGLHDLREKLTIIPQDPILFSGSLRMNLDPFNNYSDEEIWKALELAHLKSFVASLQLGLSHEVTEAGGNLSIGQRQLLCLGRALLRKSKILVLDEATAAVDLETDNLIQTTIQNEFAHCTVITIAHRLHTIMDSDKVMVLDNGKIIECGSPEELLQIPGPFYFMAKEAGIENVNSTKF

Compound	target or system	test	system	conditions	how to read	measurement	value
F[C@@H]1[C@H](c2ccc(-c3cnc(N4CCOCC4)nc3)cc2)[C@H](F)[C@H](F)C[C@@H]1F	–	liver microsome stability	mouse liver microsomes	1 µM	–	hepatic clearance	49 mL/min/kg
CCCC[C@H](NC(=O)CCCCCCCNC(=O)CN1CCN(CC(=O)O)CCN(CC(=O)O)CC1)C(=O)N[C@H]1CC(=O)NCCCC[C@@H](C(N)=O)NC(=O)[C@H](Cc2c[nH]c3ccccc23)NC(=O)[C@H](CCCNC(=N)N)NC(=O)[C@@H](Cc2ccccc2)NC(=O)[C@H](Cc2c[nH]cn2)NC1=O [technetium-99m labelled]	–	–	C57 mouse, bone	intravenous, 0.037 MBq, 0.5 h	–	tissue uptake	0.63 ± 0.15 %ID/g
CC(C)OCCOCc1ccc(OCC(O)CN(N=O)C(C)C)cc1 (centres unmarked)	Salmonella typhimurium	Ames test	TA98	1580 µg/plate, 30 % hamster S9	reference: solvent control	revertant fold increase	1 fold
O=C(c1ccc(OCCN2CCCCC2)cc1)c1c(-c2ccc(O)cc2)sc2cc(O[C@@H]3O[C@H](C(=O)O)[C@@H](O)[C@H](O)[C@H]3O)ccc12	ABCC2 (Homo sapiens, UniProt Q92887)	substrate	Sf9 membrane vesicles	pH 7	–	intrinsic clearance	79.3 µL/min/mg protein
Cc1n[nH]c(C)c1CCCOc1cc(C(=O)NCCCCC(NC(=O)CN2CCN(CC(=O)[O-])CCN(CC(=O)[O-])CCN(CC(=O)[O-])CC2)C(=O)NCC2CCC(C(=O)NC(Cc3ccc4ccccc4c3)C(=O)NCCCCC(NC(=O)NC(CCC(=O)O)C(=O)O)C(=O)O)CC2)ccc1F.[177Lu+3] (centres unmarked)	22Rv1 tumour model	–	host not given, blood	96 h, tumour-bearing	–	tracer uptake	0.11 %ID/g
N#CCNC(=O)c1ccc(C2CCCCC2)cc1	–	liver microsome stability	dog liver microsomes	1 µM	–	hepatic clearance	29 mL/min/kg
Cc1cc(=O)c2c(O)c3c(O[C@@H]4O[C@H](CO)[C@@H](O)[C@H](O)[C@H]4O)cc(O)cc3cc2o1	HepaRG co-cultured with HK-2	MTT	–	33.33 µM, 24 h	reference: untreated control	cell viability	101 ± 10.1%
CC(C)C[C@@H]1NC(=O)[C@H](CO)NC(=O)[C@H](CC(=O)O)NC(=O)[C@@H]2CCCN2C(=O)[C@H]2CCCN2C(=O)[C@H](C(C)C)NC(=O)[C@H](CC(=O)O)NC(=O)[C@H](CC(N)=O)NC(=O)[C@H](CCCNC(=N)N)NC(=O)[C@H]([C@@H](C)O)NC(=O)[C@H](C(C)C)NC(=O)CCNC(=O)CCNC(=O)[C@H](Cc2ccccc2)NC(=O)[C@H](C(C)C)NC(=O)[C@H](CC(C)C)NC1=O	HEK-293T	subcellular fractionation LC-MS	nuclear fraction	20 µM, 2 h	–	peptide amount	not detected
O=C(NC1CCOCC1)c1ccc([C@H]2[C@@H](F)[C@@H](F)C[C@@H](F)[C@H]2F)cc1	–	liver microsome stability	mouse liver microsomes	1 µM	–	hepatic clearance	14 mL/min/kg
N#C[C@@H]1CC(F)(F)CN1C(=O)CNC(=O)c1ccnc2c(NC(=O)[C@H](CCCCNC(=O)CCOCCOCCOCCOCCOCCOCCNC(=O)CN3CCN(CC(=O)[O-])CCN(CC(=O)[O-])CCN(CC(=O)[O-])CC3)NC(=O)CCCc3ccc(I)cc3)cccc12.[177Lu+3]	U-87 MG tumour model	–	host not given, heart	72 h, tumour-bearing	–	tracer uptake	0.23 %ID/g
OC[C@@H]1[C@@H](O)[C@H](O)[C@@H](O)CN1CCCCCOCc1ccc(-c2ccc(Br)cc2)cc1	Ugcg	enzyme activity, inhibitor, fluorescence	–	–	–	IC50	330 nM
COc1ccc(-c2ccc([C@H]3[C@@H](F)[C@@H](F)C[C@@H](F)[C@H]3F)cc2)cc1OC	–	hepatocyte stability	cryopreserved rat hepatocytes	1 µM	–	hepatic clearance	30 mL/min/kg
O=C1C2CC3CC1CC(C(=O)N1CCN(c4ccc([N+](=O)[O-])c5ncccc45)CC1)(C3)C2	Salmonella typhimurium	Ames test	TA97a	0.05 µg/well, with S9	reference: vehicle	revertant fold increase	0.8
CN(C)c1cccc(-c2ccc(C3CCCCC3)cc2)c1	–	liver microsome stability	dog liver microsomes	1 µM	–	hepatic clearance	27 mL/min/kg
N#C[C@@H]1CC(F)(F)CN1C(=O)CNC(=O)c1ccnc2c(NC(=O)CCOCCOCCOCCOCCOCCOCCNC(=O)[C@H](CCCCNC(=O)CN3CCN(CC(=O)[O-])CCN(CC(=O)[O-])CCN(CC(=O)[O-])CC3)NC(=O)CCCc3ccc(I)cc3)cccc12.[177Lu+3]	U-87 MG tumour model	–	host not given, heart	24 h, tumour-bearing	–	tracer uptake	0.25 %ID/g
OC[C@@H]1[C@@H](O)[C@H](O)[C@@H](O)CN1CCCCCOCc1ccc(-c2ccc(Cl)cc2)cc1	Ugcg	enzyme activity, inhibitor, fluorescence	–	–	–	IC50	25 nM
COc1cc(/C=C/C=C2\SC(=S)NC2=O)ccc1O	HEK-293T	CellTiter-Glo	–	2.5 µM, 24 h, unit not given	reference: untreated	viability	0.992 and 1.01
COc1cccc(OC)c1-c1cc(C(=O)NC2(C(=O)O)C3CC4CC(C3)CC2C4)nn1-c1ccc(C(=O)N(C)CCCN(C)C(=O)[C@H](CCCCNC(=O)[C@H](CC(C)C)NC(=O)C2OC2C(=O)O)NC(=O)CN2CCN(CC(=O)[O-])CCN(CC(=O)[O-])CCN(CC(=O)[O-])CC2)cc1C(C)C.[177Lu+3] (mixture of isomers)	HT-29 tumour model	–	host not given, stomach	72 h, tumour-bearing	–	tracer uptake	0.064 %ID/g
C=C(NC(=O)c1csc(-c2nc3c(cc2O)-c2nc(cs2)C(=O)NC(C(C)O)C(=O)NC(=C(C)OC)c2nc(cs2)C(=O)NC2c4nc(cs4)C(=O)NC(COC(=O)c4c5c6c(cccc6n4O)COC(=O)C(OC4CC(C)(O)C(N(C)C)C(C)O4)C2OC5)c2nc-3cs2)n1)C(N)=O (centres unmarked)	–	–	Sprague-Dawley rat, both sexes, plasma	intravenous infusion, 6 mg/kg single dose	–	volume of distribution	24.1 L/kg
CNC(=O)C1CCCN(C(=O)C2CC3CCC2N3C(=O)[C@@H]2C[C@@H](O)CN2C(=O)NCc2cccc(Cl)c2F)C1 (mixture of isomers)	Cytochrome P450 2C8 (CYP2C8, Homo sapiens, UniProt P10632)	enzyme activity, inhibitor	human, liver microsomes	–	–	IC50	> 50000 nM

For quick reference, copied from above:
Compound	target or system	test	system	conditions	how to read	measurement	value
F[C@@H]1[C@H](c2ccc(-c3cnc(N4CCOCC4)nc3)cc2)[C@H](F)[C@H](F)C[C@@H]1F	–	liver microsome stability	mouse liver microsomes	1 µM	–	hepatic clearance	49 mL/min/kg
